Results of several laboratories.
Each numbered part is a random draw from the data of one study; scales do not carry over between parts. Changes are numbered by the printed parent chain.

Set 1 — technique: Sort-seq; measured: YFP reporter; matrix: E. coli; setting: PhoQ-PhoP variant library; with: 10 µM Mg2+; relative to: high Mg2+ state; direction: higher = stronger signaling
Substance: PhoQ, residues 284 288 289 292 302 303 NLSRDF
For PhoP, residues 12 14 15 18 19 TQCLL (Escherichia coli, UniProt P23836): fold induction read 2.76.
For PhoP, residues 12 14 15 18 19 ICWRQ (Escherichia coli, UniProt P23836): fold induction read 1.9.
It gave 22.3 for fold induction (PhoP, residues 12 14 15 18 19 VHTVL (Escherichia coli, UniProt P23836)).

Set 2 — technique: aptamer microarray, sandwich; molecule type: DNA with 2'F-ANA; matrix: in vitro; concentration: 200 nM; with: Cy3 exosite-II aptamer, 400 nM; direction: higher = stronger binding; oligonucleotide: GGTTGGTGTGGTTGG
Target: Prothrombin, mature alpha-thrombin (F2, Homo sapiens, UniProt P00734)
Setting: whole 15-mer aptamer, many near background
Under “mean fluorescence intensity”, `2'F-ANA at 5 13 15` is recorded as 58 a.u.
Under “mean fluorescence intensity”, `2'F-ANA at 2 3 5 8 9 10 13` is recorded as 68.1 a.u.
`2'F-ANA at 1 3 4 6 7 10 14` — result for “mean fluorescence intensity”: 52.1 a.u.
For `2'F-ANA at 4 6 8 9 10 14`, “mean fluorescence intensity” read 57.7 a.u.
Under “mean fluorescence intensity”, `2'F-ANA at 1 6 7 11 13` is recorded as 131 a.u.
`2'F-ANA at 2 3 5 7 9 11 12 14` — result for “mean fluorescence intensity”: 52.2 a.u.
`2'F-ANA at 2 3 4 5 7 8 10 11 12 14` — result for “mean fluorescence intensity”: 52.2 a.u.
Under “mean fluorescence intensity”, `2'F-ANA at 1 2 3 5 7 9 12 13 14` is recorded as 48.5 a.u.
For `2'F-ANA at 5 6 8 11 14`, “mean fluorescence intensity” read 55.8 a.u.
`2'F-ANA at 1 2 3 7 8 9 10 11 12` — result for “mean fluorescence intensity”: 94.6 a.u.
`2'F-ANA at 1 2 4 5 7 8 10 12 15`: “mean fluorescence intensity” 70.5 a.u.
For `2'F-ANA at 1 3 4 6 8 9 10 12 14`, “mean fluorescence intensity” read 91.5 a.u.
Under “mean fluorescence intensity”, `2'F-ANA at 2 3 5 6 8 11 13 14` is recorded as 52.5 a.u.
`2'F-ANA at 1 2 3 6 7 9 11 12 13 14 15`: “mean fluorescence intensity” 74.7 a.u.
For `2'F-ANA at 2 6 9 13 15`, “mean fluorescence intensity” read 242 a.u.
Under “mean fluorescence intensity”, `2'F-ANA at 1 3 5 10 11` is recorded as 46.8 a.u.
`2'F-ANA at 1 2 4 5 7 10 13 14 15`: “mean fluorescence intensity” 46.5 a.u.
For `2'F-ANA at 2 5 6 8 9 10 11 12 14`, “mean fluorescence intensity” read 47.9 a.u.

Set 3 — target: CRIPT, C-terminal peptide; technique: DHFR complementation, deep sequencing; matrix: yeast; relative to: wild type; direction: higher = weaker binding
Setting: single substitutions, model-inferred values
Parent: ERBIN, PDZ domain 1 (human); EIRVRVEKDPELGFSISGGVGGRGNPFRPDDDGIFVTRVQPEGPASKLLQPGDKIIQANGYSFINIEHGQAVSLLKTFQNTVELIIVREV; partner TKNYKQTSV
`E89M` — result for “binding free energy change”: -0.027 kcal/mol.
Under “binding free energy change”, `P44N` is recorded as 0.194 kcal/mol.
`K8G`: “binding free energy change” 0.429 kcal/mol.
For `I66Q`, “binding free energy change” read 0.278 kcal/mol.
`P29L` — result for “binding free energy change”: 0.133 kcal/mol.
Under “binding free energy change”, `I2R` is recorded as 0.0613 kcal/mol.
For `S62I`, “binding free energy change” read 0.144 kcal/mol.
`E89V`: “binding free energy change” -0.0104 kcal/mol.
`L74A`: “binding free energy change” 0.0714 kcal/mol.
Under “binding free energy change”, `I16D` is recorded as 1.36 kcal/mol.
`S62C` — result for “binding free energy change”: 0.129 kcal/mol.
Under “binding free energy change”, `G18I` is recorded as 1.34 kcal/mol.
Under “binding free energy change”, `G52N` is recorded as 0.74 kcal/mol.
Under “binding free energy change”, `A58T` is recorded as 0.295 kcal/mol.

Set 4 — technique: protein-binding microarray; molecule type: double-stranded DNA, one strand shown; matrix: in vitro; concentration: 2200 nM top; setting: 60-bp whole probe; with: salmon DNA 0.4 mg/ml; relative to: random background probes; direction: higher = stronger binding; constant ends, left off below: GCCTAGCAC … GTCTTGATTCGCTTGACGCTGCTG
Target: Interferon regulatory factor 7, full length, phosphomimetic (IRF7, Homo sapiens, UniProt Q92985, residues 1-503, S471D/S472D/S475D/S476D/S477D/S483D/S484D/S487D)
UniProt Q92985, sequence (whole entry, unmodified, looked up): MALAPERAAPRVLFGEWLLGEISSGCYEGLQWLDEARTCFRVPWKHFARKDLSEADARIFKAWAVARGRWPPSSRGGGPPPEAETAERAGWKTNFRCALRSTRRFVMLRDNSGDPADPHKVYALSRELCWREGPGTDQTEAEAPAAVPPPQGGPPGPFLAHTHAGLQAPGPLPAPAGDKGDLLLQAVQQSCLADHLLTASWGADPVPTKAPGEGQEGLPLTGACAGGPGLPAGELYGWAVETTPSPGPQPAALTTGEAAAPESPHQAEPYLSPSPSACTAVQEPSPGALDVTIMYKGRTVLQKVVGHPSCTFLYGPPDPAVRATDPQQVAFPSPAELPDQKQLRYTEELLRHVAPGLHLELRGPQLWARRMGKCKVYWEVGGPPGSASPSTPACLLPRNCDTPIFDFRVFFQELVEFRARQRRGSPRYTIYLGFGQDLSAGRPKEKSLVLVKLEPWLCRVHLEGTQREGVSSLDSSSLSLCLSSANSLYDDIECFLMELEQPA
Under “fitted relative affinity”, `TCAACACTAATTTTCAAACTGTGCTAG` is recorded as 0.326 z-score.
For `TCATTTCTTTTATTAGTACTGTGCTAG`, “fitted relative affinity” read 1.83 z-score.
Under “fitted relative affinity”, `TTAGGTCTGGACTATCGGTTAGTGCTA` is recorded as 0.0448 z-score.
`GACGGTATCGACTTTCGGGAAGTGCTA`: “fitted relative affinity” 1.58 z-score.
`GACGGTATAGGGTATCGGGACGTGCTA` — result for “fitted relative affinity”: -0.517 z-score.
For `TCTGATTTTGCTTTCATTTAGTGCTAG`, “fitted relative affinity” read 3.57 z-score.
For `GTCGAACTGAGTTTCGAGACGTGCTAG`, “fitted relative affinity” read 2.1 z-score.
`TTAGGACTGGACTTTTGGTTAGTGCTA` — result for “fitted relative affinity”: -0.0774 z-score.
Under “fitted relative affinity”, `GACGGTCTCGTTTTCGGGACGTGCTAG` is recorded as 3.74 z-score.
`GACGGTATCCTTATGCTGACGTGCTAG` — result for “fitted relative affinity”: 0.678 z-score.
Under “fitted relative affinity”, `GACGGACTGGGGTATCGGGGCGTGCTA` is recorded as -0.647 z-score.
`TTAGATATCAGTCTCTATTAGTGCTAG` — result for “fitted relative affinity”: 0.2 z-score.
`GACGATCTCAGTTTCGAGAAGTGCTAG`: “fitted relative affinity” 1.56 z-score.
`GACAGTTTCGACTATCGGGACGTGCTA` — result for “fitted relative affinity”: 4.31 z-score.
For `GACGGGATCGGTCTCGGGACGTGCTAG`, “fitted relative affinity” read -0.753 z-score.
`TTATGTATCGGGTATCGGTTAGTGCTA` — result for “fitted relative affinity”: 1.06 z-score.
Under “fitted relative affinity”, `GGCGGTATCGGTATCGGGACGTGCTAG` is recorded as -0.198 z-score.
`TTAGTTTTCAGTTCCGATTAGTGCTAG`: “fitted relative affinity” 4.9 z-score.
For `TTATATTTCAGACTGGATTAGTGCTAG`, “fitted relative affinity” read 0.437 z-score.

Set 5 — technique: DHFR PCA, deep sequencing; matrix: yeast; with: (+)-ABA 0 µM; relative to: wild-type fitted maximum; direction: higher = stronger binding
Target: ABI1, truncated, D143A, DHFR fusion (Arabidopsis thaliana)
Setting: methotrexate growth selection, single substitutions
Parent: PYL1, truncated, DHFR fusion (Arabidopsis thaliana); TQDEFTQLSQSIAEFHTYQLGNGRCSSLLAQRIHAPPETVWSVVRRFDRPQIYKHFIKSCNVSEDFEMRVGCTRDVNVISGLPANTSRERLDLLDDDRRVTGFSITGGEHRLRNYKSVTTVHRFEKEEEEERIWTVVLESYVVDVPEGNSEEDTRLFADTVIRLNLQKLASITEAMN
Under “relative binding score”, `I33R` is recorded as 3.37%.
`F47S`: “relative binding score” -4.55%.
`R113K`: “relative binding score” 43%.
For `R123T`, “relative binding score” read 14.7%.
Under “relative binding score”, `L156P` is recorded as 1.83%.
Under “relative binding score”, `V121G` is recorded as -4.06%.
For `P146T`, “relative binding score” read 20.8%.
`S171E`: “relative binding score” 39.5%.
For `S59T`, “relative binding score” read 13%.
Under “relative binding score”, `L82Y` is recorded as 48.4%.
`V121F`: “relative binding score” -5.19%.
`I172N` — result for “relative binding score”: -9.83%.
`R132W` — result for “relative binding score”: 1.83%.
`D97I` — result for “relative binding score”: 4.52%.
`I162G` — result for “relative binding score”: 4.83%.

Set 6 — target: CCNE1, cyclin fold, Cln2 fusion (human); technique: yeast growth competition, sequencing; matrix: yeast; setting: weak parent motif; relative to: not given; direction: higher = stronger binding
Parent: CDC6 docking peptide (human); TLKGRRLVFDNQL
For `TLKGKRLVFDNQL [R5K]`, “normalised enrichment score” read 0.266.
`TLYGRRLVFDNQL [K3Y]`: “normalised enrichment score” 0.772.
`TLKGRRLVFDNQT [L13T]`: “normalised enrichment score” -0.0999.
`TDKGRRLVFDNQL [L2D]` — result for “normalised enrichment score”: -0.0223.
`TLKGRRLNFDNQL [V8N]` — result for “normalised enrichment score”: 1.37.
Under “normalised enrichment score”, `TNKGRRLVFDNQL [L2N]` is recorded as -0.3.
`TLTGRRLVFDNQL [K3T]`: “normalised enrichment score” 0.904.
`TLKGRRYVFDNQL [L7Y]`: “normalised enrichment score” 0.592.
`FLKGRRLVFDNQL [T1F]`: “normalised enrichment score” -0.773.
`TEKGRRLVFDNQL [L2E]`: “normalised enrichment score” 0.0606.
`TLKGRRLVKDNQL [F9K]` — result for “normalised enrichment score”: 1.04.
Under “normalised enrichment score”, `TLKGRRLVVDNQL [F9V]` is recorded as -0.951.
`TLKGRRHVFDNQL [L7H]`: “normalised enrichment score” 0.512.
Under “normalised enrichment score”, `TLKGRRLVWDNQL [F9W]` is recorded as 0.404.

Set 7 — technique: protein binding microarray; molecule type: double-stranded DNA, one strand shown; matrix: in vitro; concentration: not given; relative to: not given; direction: higher = stronger binding
Target: Histone acetyltransferase KAT6A, winged helix 2, GST fusion (KAT6A, Homo sapiens, UniProt Q92794, residues 85-181)
Setting: 8-mer, flanks averaged, mean of 2 arrays, mostly near background
Residues (chain): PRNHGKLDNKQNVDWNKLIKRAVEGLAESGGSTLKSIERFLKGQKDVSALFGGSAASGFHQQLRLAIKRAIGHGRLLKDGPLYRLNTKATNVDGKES
`AACAAGTT` gave an E-score of -0.0159.
The E-score of `AGATGTAC` is reported as -0.149.
With `ATCTAGAA` the E-score was 0.143.
The E-score of `TATCCTCA` is reported as 0.0427.
`AGTGCCGA` gave an E-score of 0.117.
`GATGGTGA` gave an E-score of -0.0843.
The E-score of `TTACACAA` is reported as 0.0474.
With `CTATCGGC` the E-score was -0.0593.
With `TAGATAGA` the E-score was -0.278.
`TAAACTTA` has an E-score of -0.0178.
For `AGAATGAC`, the E-score was -0.159.
The E-score of `TTCGGCAA` is reported as 0.035.
The E-score of `ACTAGGCA` is reported as -0.0888.
With `GGTTCGAA` the E-score was 0.108.
For `GTGCTCCA`, the E-score was 0.0849.
The E-score of `CTTTATAC` is reported as -0.0302.
With `TTCAGCAA` the E-score was 0.138.
`CTGCTTGA` gave an E-score of 0.05.
`ACATATCT` gave an E-score of -0.00252.
For `ACAGTCAA`, the E-score was 0.0334.
For `CTTCATAC`, the E-score was -0.0255.
For `ATAGGCCG`, the E-score was -0.00347.
With `CACTCTAA` the E-score was -0.146.
With `ACCGCGAA` the E-score was 0.124.
For `AAGCACTC`, the E-score was 0.0275.

Further values, each from its own experiment — technique: cross-linking MS; matrix: cell fractions; with: DSSO
For `INPPL1 (Homo sapiens, UniProt O15357)`, cross-linked residues read “S397 to S350” (ZNF148 (Homo sapiens, UniProt Q9UQR1)).
`PTBP1 (Homo sapiens, UniProt P26599)`: cross-linked residues “K454 to K391” (MATR3 (Homo sapiens, UniProt P43243)).
Under cross-linked residues, `HNRNPD (Homo sapiens, UniProt Q14103)` is recorded as “K197 to Y421” (SCFD1 (Homo sapiens, UniProt Q8WVM8)).

Excerpt of the above (set 3):
`E89M` — result for “binding free energy change”: -0.027 kcal/mol.
Under “binding free energy change”, `P44N` is recorded as 0.194 kcal/mol.
`K8G`: “binding free energy change” 0.429 kcal/mol.
For `I66Q`, “binding free energy change” read 0.278 kcal/mol.
`P29L` — result for “binding free energy change”: 0.133 kcal/mol.
Under “binding free energy change”, `I2R` is recorded as 0.0613 kcal/mol.
For `S62I`, “binding free energy change” read 0.144 kcal/mol.
`E89V`: “binding free energy change” -0.0104 kcal/mol.
`L74A`: “binding free energy change” 0.0714 kcal/mol.
Under “binding free energy change”, `I16D` is recorded as 1.36 kcal/mol.
`S62C` — result for “binding free energy change”: 0.129 kcal/mol.
Under “binding free energy change”, `G18I` is recorded as 1.34 kcal/mol.
Under “binding free energy change”, `G52N` is recorded as 0.74 kcal/mol.
Under “binding free energy change”, `A58T` is recorded as 0.295 kcal/mol.
